Experimental data of several laboratories.
Every numbered part comes from another study and shows a few of its results, in no order.
Sequence of UniProt Q9Y3S1 (whole entry, looked up): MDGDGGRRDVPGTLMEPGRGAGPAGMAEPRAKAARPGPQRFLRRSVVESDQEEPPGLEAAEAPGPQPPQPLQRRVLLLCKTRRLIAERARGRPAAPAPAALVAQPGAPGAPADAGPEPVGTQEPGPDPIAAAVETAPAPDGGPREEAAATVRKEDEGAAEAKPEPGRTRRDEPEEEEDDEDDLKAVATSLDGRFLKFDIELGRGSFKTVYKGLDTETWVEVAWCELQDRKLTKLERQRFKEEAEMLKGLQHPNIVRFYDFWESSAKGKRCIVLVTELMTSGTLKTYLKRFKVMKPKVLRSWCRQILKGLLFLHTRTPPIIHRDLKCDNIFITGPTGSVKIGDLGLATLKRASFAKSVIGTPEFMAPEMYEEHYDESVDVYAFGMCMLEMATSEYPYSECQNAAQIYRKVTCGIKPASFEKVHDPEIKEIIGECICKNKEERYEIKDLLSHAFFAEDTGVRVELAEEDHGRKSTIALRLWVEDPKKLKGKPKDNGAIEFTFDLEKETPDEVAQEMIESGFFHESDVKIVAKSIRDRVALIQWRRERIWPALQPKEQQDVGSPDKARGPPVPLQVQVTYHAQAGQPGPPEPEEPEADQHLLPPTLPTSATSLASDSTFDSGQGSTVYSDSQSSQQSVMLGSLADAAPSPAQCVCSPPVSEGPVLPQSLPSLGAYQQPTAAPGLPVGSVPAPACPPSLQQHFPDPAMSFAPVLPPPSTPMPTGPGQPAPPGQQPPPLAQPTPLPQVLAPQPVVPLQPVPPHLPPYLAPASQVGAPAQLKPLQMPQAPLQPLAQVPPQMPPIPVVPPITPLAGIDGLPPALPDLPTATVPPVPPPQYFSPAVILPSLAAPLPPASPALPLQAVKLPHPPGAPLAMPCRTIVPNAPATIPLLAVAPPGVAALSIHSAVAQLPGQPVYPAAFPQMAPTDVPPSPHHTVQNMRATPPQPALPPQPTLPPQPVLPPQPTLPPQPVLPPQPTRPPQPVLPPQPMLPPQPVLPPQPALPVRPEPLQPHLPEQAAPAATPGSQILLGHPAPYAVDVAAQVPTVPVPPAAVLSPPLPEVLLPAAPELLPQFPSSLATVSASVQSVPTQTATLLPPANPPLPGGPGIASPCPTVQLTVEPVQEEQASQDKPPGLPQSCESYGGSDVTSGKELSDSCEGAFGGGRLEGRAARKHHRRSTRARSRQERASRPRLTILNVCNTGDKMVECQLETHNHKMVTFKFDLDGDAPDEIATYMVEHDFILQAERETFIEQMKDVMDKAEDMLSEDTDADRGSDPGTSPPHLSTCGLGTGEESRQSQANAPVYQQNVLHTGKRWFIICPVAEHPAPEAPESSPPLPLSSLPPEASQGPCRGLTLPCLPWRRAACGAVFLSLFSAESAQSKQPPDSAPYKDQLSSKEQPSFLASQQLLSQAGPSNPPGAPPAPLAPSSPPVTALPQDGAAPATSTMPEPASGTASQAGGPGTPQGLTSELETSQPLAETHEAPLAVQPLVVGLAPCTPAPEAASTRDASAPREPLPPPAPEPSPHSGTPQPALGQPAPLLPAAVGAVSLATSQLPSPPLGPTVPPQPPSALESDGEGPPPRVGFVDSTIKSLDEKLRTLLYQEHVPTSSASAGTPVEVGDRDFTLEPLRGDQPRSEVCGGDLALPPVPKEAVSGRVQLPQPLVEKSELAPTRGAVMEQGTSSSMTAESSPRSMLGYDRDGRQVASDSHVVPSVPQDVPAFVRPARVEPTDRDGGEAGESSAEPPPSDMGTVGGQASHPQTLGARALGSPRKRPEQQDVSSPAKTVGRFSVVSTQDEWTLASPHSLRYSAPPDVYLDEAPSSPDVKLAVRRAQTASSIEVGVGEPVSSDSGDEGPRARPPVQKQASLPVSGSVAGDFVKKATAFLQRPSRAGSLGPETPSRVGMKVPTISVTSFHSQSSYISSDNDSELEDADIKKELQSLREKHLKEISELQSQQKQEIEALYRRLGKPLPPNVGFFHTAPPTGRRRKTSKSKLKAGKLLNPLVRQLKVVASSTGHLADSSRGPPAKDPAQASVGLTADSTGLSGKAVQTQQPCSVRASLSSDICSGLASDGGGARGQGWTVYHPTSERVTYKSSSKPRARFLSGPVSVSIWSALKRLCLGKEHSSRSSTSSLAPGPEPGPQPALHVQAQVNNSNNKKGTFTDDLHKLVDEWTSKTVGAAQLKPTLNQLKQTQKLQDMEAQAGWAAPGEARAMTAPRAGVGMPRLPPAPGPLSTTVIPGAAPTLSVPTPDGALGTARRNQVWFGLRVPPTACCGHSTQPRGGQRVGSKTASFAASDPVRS
Sequence of UniProt Q15208 (whole entry, looked up): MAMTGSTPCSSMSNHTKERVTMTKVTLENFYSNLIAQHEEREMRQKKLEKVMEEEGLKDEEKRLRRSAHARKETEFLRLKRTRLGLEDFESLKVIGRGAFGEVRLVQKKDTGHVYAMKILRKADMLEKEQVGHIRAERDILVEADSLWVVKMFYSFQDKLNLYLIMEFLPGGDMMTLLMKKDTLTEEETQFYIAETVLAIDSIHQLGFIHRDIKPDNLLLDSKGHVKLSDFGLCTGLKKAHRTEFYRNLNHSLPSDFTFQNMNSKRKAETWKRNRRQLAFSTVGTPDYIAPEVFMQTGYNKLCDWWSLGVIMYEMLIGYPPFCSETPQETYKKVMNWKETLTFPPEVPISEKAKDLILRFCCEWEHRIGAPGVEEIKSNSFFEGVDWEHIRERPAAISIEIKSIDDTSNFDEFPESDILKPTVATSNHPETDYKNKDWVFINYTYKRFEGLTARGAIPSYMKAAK
Sequence of UniProt Q59H18 (whole entry, looked up): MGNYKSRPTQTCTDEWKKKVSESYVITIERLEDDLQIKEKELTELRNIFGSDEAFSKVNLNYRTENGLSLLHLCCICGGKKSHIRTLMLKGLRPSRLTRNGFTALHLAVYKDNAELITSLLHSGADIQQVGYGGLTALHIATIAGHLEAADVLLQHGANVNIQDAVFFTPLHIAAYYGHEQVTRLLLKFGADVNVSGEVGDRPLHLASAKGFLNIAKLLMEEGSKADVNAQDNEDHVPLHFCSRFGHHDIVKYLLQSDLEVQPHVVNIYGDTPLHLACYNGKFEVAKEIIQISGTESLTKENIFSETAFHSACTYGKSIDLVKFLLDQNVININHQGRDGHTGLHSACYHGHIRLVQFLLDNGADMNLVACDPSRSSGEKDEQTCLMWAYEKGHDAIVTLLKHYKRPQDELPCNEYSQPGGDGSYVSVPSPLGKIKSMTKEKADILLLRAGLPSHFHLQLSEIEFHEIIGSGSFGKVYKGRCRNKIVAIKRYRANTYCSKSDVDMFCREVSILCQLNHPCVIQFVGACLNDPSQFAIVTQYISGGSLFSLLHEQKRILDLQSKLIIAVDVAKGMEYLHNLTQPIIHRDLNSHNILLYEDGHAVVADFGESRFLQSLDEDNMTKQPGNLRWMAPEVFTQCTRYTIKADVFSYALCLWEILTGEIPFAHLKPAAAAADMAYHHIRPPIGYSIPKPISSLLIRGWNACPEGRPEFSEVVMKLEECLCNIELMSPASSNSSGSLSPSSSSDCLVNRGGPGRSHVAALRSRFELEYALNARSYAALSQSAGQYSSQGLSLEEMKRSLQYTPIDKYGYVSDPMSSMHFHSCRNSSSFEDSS
Sequence of UniProt O43353 (whole entry, looked up): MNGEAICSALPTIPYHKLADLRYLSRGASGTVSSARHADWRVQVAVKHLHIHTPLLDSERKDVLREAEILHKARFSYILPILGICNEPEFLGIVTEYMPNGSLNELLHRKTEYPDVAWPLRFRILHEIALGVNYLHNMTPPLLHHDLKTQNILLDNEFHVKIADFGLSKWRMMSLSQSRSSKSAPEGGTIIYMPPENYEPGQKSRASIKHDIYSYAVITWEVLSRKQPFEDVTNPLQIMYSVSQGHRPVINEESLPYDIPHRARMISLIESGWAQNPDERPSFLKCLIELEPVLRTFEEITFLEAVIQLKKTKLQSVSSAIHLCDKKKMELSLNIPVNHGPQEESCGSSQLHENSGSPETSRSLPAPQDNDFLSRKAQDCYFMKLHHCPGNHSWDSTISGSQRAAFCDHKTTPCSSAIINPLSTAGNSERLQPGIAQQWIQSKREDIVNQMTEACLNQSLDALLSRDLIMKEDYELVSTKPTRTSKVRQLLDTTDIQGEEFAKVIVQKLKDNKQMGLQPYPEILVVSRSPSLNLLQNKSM

Block 1
Compound: CC(C)n1cnc(-c2ccc(F)cc2)c1-c1ncc(C(=O)Nc2ccc(N3CCN(C)CC3)cc2)[nH]1
Method: phase 2a trial
Host: idiopathic pulmonary fibrosis patients
The “patients with soft tissue infection” was 0% (30 mg once daily, grade 3).
For 60 mg once daily, grade 4: “patients with soft tissue infection” read 0%.
For 30 mg once daily, grade 1: “patients with soft tissue infection” read 0%.
The “patients with soft tissue infection” was 0% (30 mg once daily, grade 4).

Block 2
Target: Discoidin domain-containing receptor 2 (DDR2, Homo sapiens, UniProt Q16832)
Sequence of UniProt Q16832 (whole entry, looked up): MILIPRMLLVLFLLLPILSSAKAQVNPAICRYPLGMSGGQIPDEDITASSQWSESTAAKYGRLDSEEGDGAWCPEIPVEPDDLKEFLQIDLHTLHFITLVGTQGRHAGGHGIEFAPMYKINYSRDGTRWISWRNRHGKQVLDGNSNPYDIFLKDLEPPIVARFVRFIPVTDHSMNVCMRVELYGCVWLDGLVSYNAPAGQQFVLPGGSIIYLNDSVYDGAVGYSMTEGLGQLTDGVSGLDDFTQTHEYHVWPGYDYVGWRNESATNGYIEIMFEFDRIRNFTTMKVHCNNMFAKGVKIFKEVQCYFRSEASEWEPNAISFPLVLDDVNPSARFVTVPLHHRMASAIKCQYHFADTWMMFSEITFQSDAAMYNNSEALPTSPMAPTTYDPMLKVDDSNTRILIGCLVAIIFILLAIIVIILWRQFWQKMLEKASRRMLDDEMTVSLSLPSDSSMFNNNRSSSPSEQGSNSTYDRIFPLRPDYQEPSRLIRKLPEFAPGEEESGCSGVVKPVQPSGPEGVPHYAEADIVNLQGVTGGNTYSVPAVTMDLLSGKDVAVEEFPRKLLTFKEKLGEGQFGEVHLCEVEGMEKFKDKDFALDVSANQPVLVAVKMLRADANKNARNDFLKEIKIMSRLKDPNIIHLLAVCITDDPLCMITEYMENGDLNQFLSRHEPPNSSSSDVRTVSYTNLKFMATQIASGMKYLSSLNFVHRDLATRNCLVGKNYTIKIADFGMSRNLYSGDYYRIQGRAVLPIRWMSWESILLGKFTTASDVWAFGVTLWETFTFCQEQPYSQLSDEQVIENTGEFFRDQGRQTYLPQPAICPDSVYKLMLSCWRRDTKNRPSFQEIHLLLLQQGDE
Effect on: enzyme activity
Action: inhibitor
Concentration: 0.5 µM
Relative to: control
For `Cc1cccc(-c2[nH]c(C(C)(C)C)nc2-c2ccc3c(c2)OCO3)n1`, the remaining activity was 98.3%.
`CO[C@H]1C[C@@H]2CC[C@@H](C)[C@@](O)(O2)C(=O)C(=O)N2CCCC[C@H]2C(=O)O[C@H]([C@H](C)C[C@@H]2CC[C@@H](O)[C@H](OC)C2)CC(=O)[C@H](C)/C=C(\C)[C@@H](O)[C@@H](OC)C(=O)[C@H](C)C[C@H](C)/C=C/C=C/C=C/1C` gave a remaining activity of 95.6%.
With `Nc1[nH]nc2nc3ccccc3nc12` the remaining activity was 94.6%.
The remaining activity of `Nc1ncnc2n[nH]c(Nc3ccc(F)cc3)c12` is reported as 94.2%.
With `OCC(O)CCON=C1C(c2c(O)[nH]c3ccccc23)=Nc2ccccc21` (stereo not shown) the remaining activity was 86.1%.
With `CC(C)[C@H](CO)Nc1nc(Nc2cc(N)cc(Cl)c2)c2ncn(C(C)C)c2n1` the remaining activity was 128%.
With `CCOC(=O)c1c(C)[nH]c(/C=C2\C(=O)Nc3ccccc32)c1C` the remaining activity was 98%.
`COc1cc2nccc(Oc3ccc(NC(=S)NC(=O)c4ccccc4C)cc3)c2cc1OC` has a remaining activity of 54.1%.
The remaining activity of `O=C1NC(=O)C(c2cn(CCCO)c3ncccc23)=C1c1cnccn1` is reported as 94.6%.
`O=C(O)c1ccc2c3c1cccc3c(=O)n1c3ccccc3nc21` gave a remaining activity of 96.8%.
`COc1ccc(OC)c2c(=S)c3ccccc3[nH]c12` has a remaining activity of 97.1%.
For `Cc1ccc(NC(=O)c2ccc(CN3CCN(C)CC3)cc2)cc1Nc1nc(-c2cccnc2)cs1`, the remaining activity was 36.4%.
`C#Cc1cccc(Nc2ncnc3cc(OCCOC)c(OCCOC)cc23)c1` gave a remaining activity of 121%.

Block 3
SMILES: CN1CCN(C(=O)c2ccc(NC(=O)Nc3ccc(N(C)c4ccnc(Nc5ccc(CS(C)(=O)=O)cc5)n4)cc3)cc2)CC1
Effect on: binding
Concentration: 1 µM
For Serine/threonine-protein kinase 38 (STK38, Homo sapiens, UniProt Q15208): remaining binding read 54%.
For Serine/threonine-protein kinase SIK2 (SIK2, Homo sapiens, UniProt Q9H0K1); competition with immobilised ligand: remaining binding read 56%.
The remaining binding was 67% (Serine/threonine-protein kinase WNK2 (WNK2, Homo sapiens, UniProt Q9Y3S1)).
It gave 56% for remaining binding (Tyrosine-protein kinase Mer (MERTK, Homo sapiens, UniProt Q12866); competition with immobilised ligand).
The remaining binding was 94% (Receptor-interacting serine/threonine-protein kinase 2 (RIPK2, Homo sapiens, UniProt O43353); competition with immobilised ligand).

Block 4
Structure (SMILES): CN([C@@H]1CCc2c(CC(=O)O)c3ccccc3n2C1)S(=O)(=O)c1ccc(F)cc1
Effect on: cell-free assay
Method: competition with immobilised ligand
Concentration: 1 µM
The remaining binding was 98% (Discoidin domain-containing receptor 2 (DDR2, Homo sapiens, UniProt Q16832)).
For Proto-oncogene tyrosine-protein kinase receptor Ret (RET, Homo sapiens, UniProt P07949, M918T): remaining binding read 97%.
Receptor-type tyrosine-protein kinase FLT3 (FLT3, Homo sapiens, UniProt P36888, K663Q) — remaining binding: 100%.
For Receptor-type tyrosine-protein kinase FLT3 (FLT3, Homo sapiens, UniProt P36888, ITD): remaining binding read 100%.
For Serine/threonine-protein kinase TNNI3K (TNNI3K, Homo sapiens, UniProt Q59H18): remaining binding read 100%.

Further values, each from its own experiment
The Kd of `CN(C)c1ccc(Nc2c3ccc(NC(=O)CCN4CCCC4)cc3nc3cc(NC(=O)CCN4CCCC4)ccc23)cc1` is reported as 50 nM (G-quadruplex RNA, G-quadruplex (Homo sapiens); microscale thermophoresis; KCl 150 mM).

For quick reference, copied from above (block 4):
Receptor-type tyrosine-protein kinase FLT3 (FLT3, Homo sapiens, UniProt P36888, K663Q) — remaining binding: 100%.
For Receptor-type tyrosine-protein kinase FLT3 (FLT3, Homo sapiens, UniProt P36888, ITD): remaining binding read 100%.
For Serine/threonine-protein kinase TNNI3K (TNNI3K, Homo sapiens, UniProt Q59H18): remaining binding read 100%.
